Published values of several laboratories.
Numbered parts are unrelated; each lists some results of a single study. Substitutions count along the parent as printed.
UniProt Q9C0B0, sequence (30-357, looked up): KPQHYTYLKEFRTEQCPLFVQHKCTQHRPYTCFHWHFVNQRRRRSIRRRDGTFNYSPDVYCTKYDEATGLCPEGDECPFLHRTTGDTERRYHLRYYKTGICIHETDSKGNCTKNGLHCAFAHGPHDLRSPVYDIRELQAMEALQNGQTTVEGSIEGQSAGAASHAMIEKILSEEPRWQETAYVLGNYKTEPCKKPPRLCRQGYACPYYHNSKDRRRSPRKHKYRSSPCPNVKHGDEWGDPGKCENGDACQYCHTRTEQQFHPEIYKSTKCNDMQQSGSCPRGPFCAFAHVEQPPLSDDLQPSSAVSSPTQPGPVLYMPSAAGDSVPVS

Study 1
Target: Prothrombin, mature alpha-thrombin (F2, Homo sapiens, UniProt P00734)
Technique: aptamer microarray, sandwich
Form: DNA with 2'F-ANA
Sample: in vitro
Concentration: 200 nM
Notes: whole 15-mer aptamer, many near background
With: Cy3 exosite-II aptamer, 400 nM
Direction: higher = stronger binding
Endpoint: mean fluorescence intensity
Oligonucleotide: GGTTGGTGTGGTTGG
2'F-ANA at 3 5 7 8 10 12 13 15: 64.2 a.u.
2'F-ANA at 4 6 9 10 11 13 14: 54.2 a.u.
2'F-ANA at 2 6 9 12 15: 601 a.u.
2'F-ANA at 1 3 4 7 8 12 14 15: 107 a.u.
2'F-ANA at 1 3 4 5 6 8 10 12 15: 49.9 a.u.
2'F-ANA at 7 8 9 11 14 15: 206 a.u.
2'F-ANA at 1 5 6 7 8 10 12 14: 44.8 a.u.
2'F-ANA at 1 2 3 5 6 7: 67.5 a.u.
2'F-ANA at 5 6 7 11 13 15: 52.8 a.u.
2'F-ANA at 4 7 8 10 14: 88.6 a.u.
2'F-ANA at 1 2 4 5 6 8 9 11 12 13: 69.4 a.u.
2'F-ANA at 1 4 5 6 8 11 13 14 15: 108 a.u.
2'F-ANA at 1 2 5 6 8 9 12 13: 92.3 a.u.
2'F-ANA at 1 3 4 8 10 11 13 15: 63.8 a.u.
2'F-ANA at 1 4 8 10 12 13 14 15: 51.8 a.u.
2'F-ANA at 3 6 7 8 11 15: 863 a.u.
2'F-ANA at 4 5 8 9 10 11 12 15: 47 a.u.

Study 2
Target: Interferon regulatory factor 5, full length, phosphomimetic (IRF5, Homo sapiens, UniProt Q13568-2, residues 1-514, S451D/S453D/S456D/S462D)
Technique: protein-binding microarray
Form: double-stranded DNA, one strand shown
Sample: in vitro
Concentration: 940 nM top
Notes: 60-bp whole probe
With: salmon DNA 0.4 mg/ml
Baseline: random background probes
Direction: higher = stronger binding
Endpoint: fitted relative affinity
All sequences stand within: GCCTAGCAC … GTCTTGATTCGCTTGACGCTGCTG
TCAGTTCCTTATTTAAGACTGTGCTAG: 0.129 z-score
TTAGGTTCGGGTTTCGGTTAGTGCTAG: 6.69 z-score
GACGATTTCGGGTCTGGAGACGTGCTA: 0.392 z-score
GACGATTTCAATTCCGAGACGTGCTAG: 0.379 z-score
CCCATTCTGAATTCGAATGCGTGCTAG: 0.0361 z-score
GACGATCTCATACTGGAGACGTGCTAG: 0.0503 z-score
TTAGATATCAGTCTCCATTAGTGCTAG: 0.425 z-score
GTAGGTATCCTTCTCCTTTAGTGCTAG: 0.551 z-score
TTAGAACTGAGTATCGATTTGTGCTAG: 4 z-score
AGGAAAGTGTTTCTCAACCAGTGCTAG: -0.0105 z-score

Study 3
Target: Ras GTPase-activating protein-binding protein 1, full length (G3BP1, Homo sapiens, UniProt Q13283)
UniProt Q13283, sequence (whole entry, looked up): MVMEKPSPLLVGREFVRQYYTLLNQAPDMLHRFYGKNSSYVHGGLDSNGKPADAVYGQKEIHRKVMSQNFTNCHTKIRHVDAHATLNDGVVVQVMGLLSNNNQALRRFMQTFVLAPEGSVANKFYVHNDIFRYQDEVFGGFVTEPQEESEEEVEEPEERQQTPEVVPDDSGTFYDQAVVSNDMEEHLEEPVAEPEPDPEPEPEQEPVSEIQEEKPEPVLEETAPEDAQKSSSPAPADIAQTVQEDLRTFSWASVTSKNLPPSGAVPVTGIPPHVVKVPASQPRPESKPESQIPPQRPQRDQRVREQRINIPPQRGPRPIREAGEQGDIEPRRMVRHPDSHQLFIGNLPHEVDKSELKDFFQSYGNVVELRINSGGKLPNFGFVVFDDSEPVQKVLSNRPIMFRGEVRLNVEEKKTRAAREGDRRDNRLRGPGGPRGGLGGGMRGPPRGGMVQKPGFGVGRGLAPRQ
Technique: RNA Bind-n-Seq
Form: RNA
Sample: in vitro
Concentration: 200 nM
Notes: whole 134-nt RNA, ends assumed
With: 150 mM KCl
Baseline: input library
Direction: higher = stronger binding
Endpoint: log2 enrichment
All sequences stand within: GGGAGUUCUACAGUCCGACGAUC … UGGAAUUCUCGGGUGUCAAGG
UCCUCAAGUCCUGUGCUACACAUCGUAUGUACCGAAUCGGAGGAAAGGUGGAAAGUAUUAUGUUACGCCGUUCGGAUCUGCACUUCCAGC: -0.742
UCCUCAAGUCCUGUGCUACACAUCGUAUGUACCGAAUCGGAGGAGGAGGGGAAAGUAUUAUGUUACGCCGUUCGGAUCUGCACUUCCAGC: -0.393
CUGUGCUACACAUCGUAUGUACCGAAUCGGGUUUUUUUGGGGUUUUUUUGGGGUUUUUUUGGAAAGUAUUAUGUUACGCCGUUCGGAUCU: -0.728
CUCCUGGAGUGGAUCCGGCGCACCAUCCCCUGGCUGGAGGACCGUGUGCCCCAAAAGACUAUCCAGGAGAUGCAGCAGAAGCUGGAGGAC: -1.2
AGUCCUGUGCUACACAUCGUAUGUACCGAAUCGGGGUUUGGGGAAAAAGGGGAGGGGAAAGUAUUAUGUUACGCCGUUCGGAUCUGCACU: 0.633
CAAGUCCUGUGCUACACAUCGUAUGUACCGAAUCGGUUUUUUUGGAAAGGUUUGGAAAGUAUUAUGUUACGCCGUUCGGAUCUGCACUUC: -1.21
GUCCUGUGCUACACAUCGUAUGUACCGAAUCGGGGAGGGGUUUUUUUGGGGUUUGGGGAAAGUAUUAUGUUACGCCGUUCGGAUCUGCAC: 0.393
ACCAUGCAGGUGGGCAUCUUUGGGACGUGGGGCAAGGGGGGGAUAGGGAGGGGGGUAACACUUUGGGAACAGGUGGUCCCAGGUCGUUUC: 1.25
CACAGACAACACGCACCCACACAGACACAGAGGGAAGGGGUUGGGAUGGAAACAGGGUGCACAGCAGGGCGGGGUAGGACCCCAGCCCCU: 1.25
CCUGUGCUACACAUCGUAUGUACCGAAUCGGAAAAAAAGGGAAAAAAAGGGAAAAAAAGGGAAAGUAUUAUGUUACGCCGUUCGGAUCUG: -0.974

Study 4
Target: Sal-like protein 4, full length isoform B (SALL4, Homo sapiens, UniProt Q9UJQ4-2, residues 1-616)
Technique: universal PBM
Form: double-stranded DNA, one strand shown
Sample: in vitro
Concentration: not given
Notes: 8-mer, flanks averaged, mean of replicates
Direction: higher = stronger binding
Endpoint: E-score
GATGTGGC: -0.195
CGTCTGAA: -0.0401
AGGCCACC: -0.245
AGCAAAGC: 0.012
ATCTCCAG: -0.00186
AGGTTTTA: 0.0723
ATCCGTGA: -0.0602
GCCCGCCA: -0.254
CGGATAGC: -0.146
CGTCTAGC: -0.105
CCAACTGA: -0.0111
AGGTCTCC: -0.105
GCAGCGTA: -0.0915
CGCGATTC: -0.176
ATCGCCAT: 0.0241
CAACTGAG: -0.0361
AATCTCGA: 0.097
CTATTGCA: 0.196

Study 5
Target: ABI1, truncated, D143A, DHFR fusion (Arabidopsis thaliana)
Technique: DHFR PCA, deep sequencing
Sample: yeast
Notes: methotrexate growth selection, single substitutions
With: (+)-ABA 58 µM
Baseline: wild-type fitted maximum
Direction: higher = stronger binding
Endpoint: relative binding score
Parent: PYL1, truncated, DHFR fusion (Arabidopsis thaliana); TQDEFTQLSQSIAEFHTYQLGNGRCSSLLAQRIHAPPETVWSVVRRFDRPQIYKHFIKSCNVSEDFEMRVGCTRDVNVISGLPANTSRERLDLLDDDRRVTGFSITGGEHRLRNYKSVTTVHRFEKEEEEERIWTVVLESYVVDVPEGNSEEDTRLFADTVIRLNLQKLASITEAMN
R123D: 88.8%
D3K: 80%
N61L: 79.8%
V40M: -14%
A35S: 74.7%
R163Q: 75.2%
I133R: 85.8%
S87M: 5.97%
G23C: 60.9%
R113S: 89.3%
A35H: -24.2%
L20V: 95.6%
I12N: 22%

Study 6
Target: Centromere-binding protein 1, full length, N-terminal tag (CBF1, Saccharomyces cerevisiae, UniProt P17106, residues 1-351)
UniProt P17106, sequence (whole entry, looked up): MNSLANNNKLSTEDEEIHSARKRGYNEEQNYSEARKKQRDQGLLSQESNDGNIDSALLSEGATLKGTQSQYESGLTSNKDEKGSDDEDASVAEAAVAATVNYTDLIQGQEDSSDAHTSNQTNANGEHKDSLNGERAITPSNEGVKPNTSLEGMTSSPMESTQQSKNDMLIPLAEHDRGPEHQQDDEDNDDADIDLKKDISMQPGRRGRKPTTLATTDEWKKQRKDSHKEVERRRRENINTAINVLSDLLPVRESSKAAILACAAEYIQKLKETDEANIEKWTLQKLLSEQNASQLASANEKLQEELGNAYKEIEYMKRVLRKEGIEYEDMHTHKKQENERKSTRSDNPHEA
Technique: protein-binding microarray
Form: double-stranded DNA, one strand shown
Sample: in vitro
Concentration: 0.8 µM
Notes: whole 60-bp probe, no competitor
Direction: higher = stronger binding
Endpoint: fluorescence intensity
All sequences stand within: … GTCTTGATTCGCTTGACGCTGCTG
CTACAGCAATTGCACCACATGCATGTCACATATTTC: 649 a.u.
CTACCATAGGTGAGCCACGAGTTTGATTCCAAATTC: 539 a.u.
CTAGTATTTGAATGACACGTTGCCTTCATTCCTTTC: 640 a.u.
GAATTGTTTTTTGATGTTACGTTCTGTATGATTTAG: 528 a.u.
GAAGATATAGAAGAAAAGCTGACGAAAAAAGAATAG: 533 a.u.
CTATTCGTGTAAAGTGATGTTGGGATTGTCCGATTC: 545 a.u.
GAAAGCCGCAGACGTGAGTTGATCTTTTTGCTTTAG: 484 a.u.
CTATTTTGGCGGAATGGTGTGAGTGGTTCACTTTTC: 497 a.u.
CTACAGTTTGGCTTACACATGATGGTTGGAATATTC: 631 a.u.
CTAGTTTCCATTTGCCACGTTGCTTTGCCTTCTTTC: 525 a.u.
CTATTCTACGTTAAAATCGTGATTACTTTACGATTC: 622 a.u.
GAATTTTTGTGATTGAACGTGTGATCTTTTCCTTAG: 578 a.u.
GAATACGAAGCTTATCACATGCACCATTATCTGTAG: 1760 a.u.
GAATCGGGGATCCACGTGATGGCTTTTTGATCATAG: 8620 a.u.
CTACACAAGGAATAACACGTGACATTTTTCTTTTTC: 12400 a.u.
CTAAATCTCTTGCAATTGGTGTCACTGCCACATTTC: 560 a.u.

Other studies, line by line
GGGAGUUCUACAGUCCGACGAUCAAGCCAUCUUUUCCACAUUUUCUGUAAAUAAUGGAUAAUCAUUUUAAAAAUUUUUAUUUUCCGUGCUGUUUUAACAAUGCCGACCGAUCAUAAAUGUACUUGCUGAAUUCAAUCAUUUUUCAACAGAGGAUUGAGCAUCA  bound/input enrichment (RING finger protein unkempt homolog, zinc fingers 1-6, SBP tag (UNK, Homo sapiens, UniProt Q9C0B0, residues 30-357); RNA Bind-n-Seq; RNA, in vitro; 100 nM, RNA with constant flanks, ends assumed; baseline: input RNA pool, higher = stronger binding): 0.58 ratio

Some of these lines once more (study 1):
2'F-ANA at 1 4 8 10 12 13 14 15: 51.8 a.u.
2'F-ANA at 4 6 9 10 11 13 14: 54.2 a.u.
2'F-ANA at 1 5 6 7 8 10 12 14: 44.8 a.u.
2'F-ANA at 1 2 3 5 6 7: 67.5 a.u.
2'F-ANA at 1 3 4 7 8 12 14 15: 107 a.u.
2'F-ANA at 4 7 8 10 14: 88.6 a.u.
2'F-ANA at 2 6 9 12 15: 601 a.u.
2'F-ANA at 7 8 9 11 14 15: 206 a.u.
2'F-ANA at 4 5 8 9 10 11 12 15: 47 a.u.
2'F-ANA at 3 5 7 8 10 12 13 15: 64.2 a.u.
2'F-ANA at 1 4 5 6 8 11 13 14 15: 108 a.u.
2'F-ANA at 1 3 4 5 6 8 10 12 15: 49.9 a.u.
